Experimental data gathered from unrelated publications.
Numbered parts are unrelated; each lists some results of a single study. Substitutions count along the parent as printed.

Block 1
Target: CCNB1, cyclin fold, Cln2 fusion (human)
Method: yeast growth competition, sequencing
Matrix: yeast
Setting: strong parent motif
Baseline: not given
Reading: higher = stronger binding
Starting sequence: E2F1 docking peptide (human); PPVKRRLDFETDH; partner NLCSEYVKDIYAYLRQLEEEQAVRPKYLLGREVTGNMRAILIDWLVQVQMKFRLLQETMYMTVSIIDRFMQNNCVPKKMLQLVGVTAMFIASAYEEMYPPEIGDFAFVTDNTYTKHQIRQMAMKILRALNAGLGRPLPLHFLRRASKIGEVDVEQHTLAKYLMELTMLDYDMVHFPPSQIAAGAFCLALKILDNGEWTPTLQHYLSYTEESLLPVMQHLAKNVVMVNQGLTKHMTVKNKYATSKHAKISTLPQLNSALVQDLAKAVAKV
Under “normalised enrichment score”, `L7D` is recorded as -0.176.
Under “normalised enrichment score”, `D12I` is recorded as 4.96.
Under “normalised enrichment score”, `K4D` is recorded as 3.26.
`R5F`: “normalised enrichment score” 0.881.
`F9E`: “normalised enrichment score” 0.799.
`T11G` — result for “normalised enrichment score”: 5.17.
`F9V` — result for “normalised enrichment score”: 0.476.
`L7G`: “normalised enrichment score” -0.266.
`D12M` — result for “normalised enrichment score”: 4.93.
`L7N` — result for “normalised enrichment score”: 0.0962.

Block 2
Target: Sal-like protein 4, full length isoform B (SALL4, Homo sapiens, UniProt Q9UJQ4-2, residues 1-616)
Method: universal PBM
Form: double-stranded DNA, one strand shown
Matrix: in vitro
Tested at: not given
Setting: 8-mer, flanks averaged, mean of replicates
Reading: higher = stronger binding
Construct (chain): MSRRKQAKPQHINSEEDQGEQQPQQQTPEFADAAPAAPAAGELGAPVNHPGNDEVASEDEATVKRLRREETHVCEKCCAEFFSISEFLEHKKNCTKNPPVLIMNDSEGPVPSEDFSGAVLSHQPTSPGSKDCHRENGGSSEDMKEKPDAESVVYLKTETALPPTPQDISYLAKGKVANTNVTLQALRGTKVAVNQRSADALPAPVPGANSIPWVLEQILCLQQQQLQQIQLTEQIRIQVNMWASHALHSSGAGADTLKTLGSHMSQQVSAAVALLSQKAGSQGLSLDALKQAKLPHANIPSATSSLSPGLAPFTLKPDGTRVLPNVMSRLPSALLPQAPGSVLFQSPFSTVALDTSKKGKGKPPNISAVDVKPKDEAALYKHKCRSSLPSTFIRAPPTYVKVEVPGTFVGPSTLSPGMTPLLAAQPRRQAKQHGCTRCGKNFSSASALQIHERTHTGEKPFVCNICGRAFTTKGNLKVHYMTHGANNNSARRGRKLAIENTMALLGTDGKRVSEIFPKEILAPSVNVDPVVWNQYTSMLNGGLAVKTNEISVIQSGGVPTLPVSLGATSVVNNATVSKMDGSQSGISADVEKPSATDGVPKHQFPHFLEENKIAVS
For `AGTTACAA`, the E-score was 0.148.
For `CCGTTTAC`, the E-score was 0.0283.
With `GGGTAGGA` the E-score was -0.114.
`GCCTTAGA` has an E-score of -0.133.
For `TACCGACA`, the E-score was -0.0819.
With `CCTTGCTC` the E-score was -0.174.
With `AAATGATT` the E-score was 0.361.
`CCTCGTCG` has an E-score of -0.139.
With `ACCGCGTA` the E-score was -0.137.
The E-score of `ATGAACTC` is reported as 0.017.
For `GGAGGCAC`, the E-score was -0.259.
`AGCTTACG` gave an E-score of -0.0154.
`CATCAAAC` gave an E-score of 0.0398.
With `CGACCTTC` the E-score was -0.0763.
`AGCCCGCT` has an E-score of -0.159.
The E-score of `AGAACCGA` is reported as -0.192.
For `ATCATTCG`, the E-score was 0.159.

Block 3
Target: RNA binding protein fox-1 homolog 2, RRM domain, GST-SBP tag (RBFOX2, Homo sapiens, UniProt O43251-10, residues 100-194)
Method: RNA Bind-n-Seq
Form: RNA
Matrix: in vitro
Tested at: 365 nM
Setting: natural RNA segment, single round, ends assumed
Baseline: no-protein control
Reading: higher = stronger binding
All sequences stand within: GGGAGUUCUACAGUCCGACGAUC … UGGAAUUCUCGGGUGCCAA
Target sequence (chain): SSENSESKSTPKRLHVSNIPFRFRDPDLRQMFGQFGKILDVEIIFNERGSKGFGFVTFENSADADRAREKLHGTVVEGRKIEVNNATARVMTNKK
`UAUAUCAACCUUCGACUUUCUCAGUUCCUGCAUCUGCUCCCAUCUGUUCUUUCUUCCCAUCUAGGGCUAUUGCCCAAGGCCCAGAGAAACCAAUAAACUUGUACACGAGU`: “RBNS enrichment (R)” 1.65.
`AAAUAUUAGACACAAUCGUUCCCAUUCCUGACUCUUCAAUGGAAAAGGAAGGUACAGAUGUUUACAGUGGUGCCCCAGGUGACUCGUUCUCACCACAACAAAAGCAACUA` — result for “RBNS enrichment (R)”: 0.292.
`GAACAAGUUUGUUUUGCCUGAUACAGUAUUAUAAUUGGUUUUGUAACUUUGAAGUCUUGUAUGAUUUAAUUAUGUUUAAUGAGUUAGAAUGGUUUGCUUUGUAUUACAGA` — result for “RBNS enrichment (R)”: 1.66.
For `CUCAAGCAGUGUGCUGGACCUAAAAUACUGACUUUAGUUAGUAUCCUUGGAUUUUUAGAUUCCCAGUGUCUAAUUCCCUGUUAUAAUUUGCACAAACAAAACAAAAUGUU`, “RBNS enrichment (R)” read 0.524.
For `CUAAAGAGCUGUGUUUUCAUAGCAGGGGCUAUUGUACAGACAGUGAUAACCAAAUAGUAAUAUGCCAGUUCUUUCUUCUUUUUUUAGCUUCAGUAGUAGCUAAGCCAUUA`, “RBNS enrichment (R)” read 0.514.
`CAGCUAUCAGGUGCUAUGUAACUCCCUAGUGCUCUUACAUAGUUUUAUUUGCAGGACUAGAAUAAAAAGUUUAAACAUUACAGUAUUUCUGAGCAAACAAAUGUGCUCCA`: “RBNS enrichment (R)” 0.822.
`CAAGGACUUGGUUUCAUCAGUUACCAGGAAGUGGGGGAACCAUGGAGGGAGAACGCUAUAUUGGGUUCACAGUUACAUGGUGAUCAAAGAGAACUUCUCAGUCUCCAGGA` — result for “RBNS enrichment (R)”: 0.223.
For `AUGCACAACUUGCUUGUACAGGUCAACUGUCCAUCUUGGGUACUAUUUAACUGUCAAACAGAGGAAUCUGUGUUUGUUACAAUAAUAUAACAGAUGCCUUGAAGGACCCG`, “RBNS enrichment (R)” read 0.153.
For `GCAAGCCGAUCCACACGACCAUCCUGAACCCACACGUGCACGUCAUUGGAGAGGAUGCCGCCUGCAUCGCUUACAUCCGGCUCACGCAGUACAUUGACGGGCAGGGCCGG`, “RBNS enrichment (R)” read 0.603.
`AGGACACCAGUCUUCAAGGAAAGGGACUUUUUUCCAGUCUGCCAAUCAUAUUGGGAAAGUGCUAGCUGUGCUCACCUUCAUGGGGCUGUUUCCAGCUCGUCCACAAGCUC` — result for “RBNS enrichment (R)”: 0.429.
`UUGUUUCAGACCUCUGAUGGGCCGAGCUGCCUGUGGACGGUGCUCAGACAAGUCUGGGAUUAGAGCCUCAAGGACAUUGUGUGAUUGCCUCACAUUUGCAGGUAAUAUCA` — result for “RBNS enrichment (R)”: 0.844.
Under “RBNS enrichment (R)”, `UUCGUUAACAGAGGAAUCUGCUCUGCAUGGCAUUUCUCCAAGUGAAGACAGGCUUCUUUUUUUUUUUUUUAAAUGGUGCCCGCCCCACCCAUCGACACAUGCAGAAAUGG` is recorded as 0.596.

Other studies, line by line
`PhoQ, residues 284 288 289 292 302 303 SNGLAW` has a fold induction of 9.69 (PhoP, residues 12 14 15 18 19 IQFRS (Escherichia coli, UniProt P23836); Sort-seq, item: YFP reporter; E. coli; PhoQ-PhoP variant library, added: 10 µM Mg2+; baseline: high Mg2+ state, higher = stronger signaling).

Repeated from above (block 3):
`GAACAAGUUUGUUUUGCCUGAUACAGUAUUAUAAUUGGUUUUGUAACUUUGAAGUCUUGUAUGAUUUAAUUAUGUUUAAUGAGUUAGAAUGGUUUGCUUUGUAUUACAGA` — result for “RBNS enrichment (R)”: 1.66.
`AGGACACCAGUCUUCAAGGAAAGGGACUUUUUUCCAGUCUGCCAAUCAUAUUGGGAAAGUGCUAGCUGUGCUCACCUUCAUGGGGCUGUUUCCAGCUCGUCCACAAGCUC` — result for “RBNS enrichment (R)”: 0.429.
`CAGCUAUCAGGUGCUAUGUAACUCCCUAGUGCUCUUACAUAGUUUUAUUUGCAGGACUAGAAUAAAAAGUUUAAACAUUACAGUAUUUCUGAGCAAACAAAUGUGCUCCA`: “RBNS enrichment (R)” 0.822.
